Results gathered from unrelated publications.
Each numbered part is a random draw from the data of one study; scales do not carry over between parts. “And” joins repeats or separate records; there may be more than shown.
Chain of UniProt Q9BWU1 (whole entry, looked up): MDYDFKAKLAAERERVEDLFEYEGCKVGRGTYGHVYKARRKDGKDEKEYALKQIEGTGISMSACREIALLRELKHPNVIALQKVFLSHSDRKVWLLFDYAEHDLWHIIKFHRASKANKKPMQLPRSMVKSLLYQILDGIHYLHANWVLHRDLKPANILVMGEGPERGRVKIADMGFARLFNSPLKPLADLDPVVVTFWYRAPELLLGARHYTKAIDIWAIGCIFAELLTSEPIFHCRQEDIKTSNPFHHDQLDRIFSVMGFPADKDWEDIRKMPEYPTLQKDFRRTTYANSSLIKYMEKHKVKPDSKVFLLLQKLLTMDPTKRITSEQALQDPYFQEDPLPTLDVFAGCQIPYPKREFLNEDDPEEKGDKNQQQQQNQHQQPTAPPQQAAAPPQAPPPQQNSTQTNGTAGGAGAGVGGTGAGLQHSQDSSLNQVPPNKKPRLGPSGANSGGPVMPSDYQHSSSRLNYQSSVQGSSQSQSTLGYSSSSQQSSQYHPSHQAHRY
Chain of UniProt Q86UX6 (whole entry, looked up): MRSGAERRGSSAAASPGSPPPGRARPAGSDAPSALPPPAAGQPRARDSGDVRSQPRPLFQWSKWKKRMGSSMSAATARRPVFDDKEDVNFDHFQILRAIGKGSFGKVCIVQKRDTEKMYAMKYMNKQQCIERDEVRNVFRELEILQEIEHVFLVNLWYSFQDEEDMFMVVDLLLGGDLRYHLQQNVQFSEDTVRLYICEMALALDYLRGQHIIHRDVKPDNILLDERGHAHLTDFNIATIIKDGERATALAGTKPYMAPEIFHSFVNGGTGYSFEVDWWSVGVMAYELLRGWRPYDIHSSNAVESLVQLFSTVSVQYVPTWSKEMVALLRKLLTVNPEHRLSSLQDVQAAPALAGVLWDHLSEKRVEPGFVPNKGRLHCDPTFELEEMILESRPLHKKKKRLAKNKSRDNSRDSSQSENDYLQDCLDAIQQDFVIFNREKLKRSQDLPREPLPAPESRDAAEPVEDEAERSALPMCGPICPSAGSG
Chain of UniProt Q9H1R3 (whole entry, looked up): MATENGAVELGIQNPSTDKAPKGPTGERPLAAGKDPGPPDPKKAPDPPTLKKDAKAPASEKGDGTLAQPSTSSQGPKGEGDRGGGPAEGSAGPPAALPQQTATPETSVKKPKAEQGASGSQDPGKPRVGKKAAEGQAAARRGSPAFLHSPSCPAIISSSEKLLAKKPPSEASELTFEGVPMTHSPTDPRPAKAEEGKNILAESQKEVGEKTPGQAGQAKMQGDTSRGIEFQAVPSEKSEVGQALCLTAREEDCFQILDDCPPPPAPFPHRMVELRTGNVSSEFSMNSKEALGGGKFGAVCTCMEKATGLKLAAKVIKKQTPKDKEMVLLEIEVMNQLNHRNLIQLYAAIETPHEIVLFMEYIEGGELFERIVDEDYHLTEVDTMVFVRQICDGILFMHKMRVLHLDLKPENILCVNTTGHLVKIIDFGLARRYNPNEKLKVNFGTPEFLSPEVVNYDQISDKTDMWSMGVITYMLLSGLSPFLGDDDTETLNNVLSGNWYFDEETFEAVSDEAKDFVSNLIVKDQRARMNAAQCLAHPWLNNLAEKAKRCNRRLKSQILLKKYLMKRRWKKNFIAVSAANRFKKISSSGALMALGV
Chain of UniProt Q9UQ88 (whole entry, looked up): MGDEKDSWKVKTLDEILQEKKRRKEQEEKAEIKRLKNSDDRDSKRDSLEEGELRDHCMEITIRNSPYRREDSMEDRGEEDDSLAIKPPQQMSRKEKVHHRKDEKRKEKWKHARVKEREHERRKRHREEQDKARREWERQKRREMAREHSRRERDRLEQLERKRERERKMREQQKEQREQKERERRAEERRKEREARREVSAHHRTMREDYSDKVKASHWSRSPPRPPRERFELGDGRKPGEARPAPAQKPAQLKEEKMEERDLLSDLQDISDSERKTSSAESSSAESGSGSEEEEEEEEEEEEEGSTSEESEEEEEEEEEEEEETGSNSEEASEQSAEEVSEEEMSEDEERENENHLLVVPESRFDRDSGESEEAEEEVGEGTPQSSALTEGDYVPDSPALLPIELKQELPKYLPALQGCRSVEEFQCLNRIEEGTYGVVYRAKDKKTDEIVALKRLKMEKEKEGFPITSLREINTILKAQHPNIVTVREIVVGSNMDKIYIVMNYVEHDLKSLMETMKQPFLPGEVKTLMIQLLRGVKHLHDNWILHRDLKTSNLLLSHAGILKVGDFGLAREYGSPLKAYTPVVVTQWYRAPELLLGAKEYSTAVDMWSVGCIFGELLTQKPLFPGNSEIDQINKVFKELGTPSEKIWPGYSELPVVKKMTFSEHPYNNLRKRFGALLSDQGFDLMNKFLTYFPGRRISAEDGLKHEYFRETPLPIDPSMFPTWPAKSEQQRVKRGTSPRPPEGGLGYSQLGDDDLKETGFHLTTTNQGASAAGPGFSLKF
Chain of UniProt Q8N752 (whole entry, looked up): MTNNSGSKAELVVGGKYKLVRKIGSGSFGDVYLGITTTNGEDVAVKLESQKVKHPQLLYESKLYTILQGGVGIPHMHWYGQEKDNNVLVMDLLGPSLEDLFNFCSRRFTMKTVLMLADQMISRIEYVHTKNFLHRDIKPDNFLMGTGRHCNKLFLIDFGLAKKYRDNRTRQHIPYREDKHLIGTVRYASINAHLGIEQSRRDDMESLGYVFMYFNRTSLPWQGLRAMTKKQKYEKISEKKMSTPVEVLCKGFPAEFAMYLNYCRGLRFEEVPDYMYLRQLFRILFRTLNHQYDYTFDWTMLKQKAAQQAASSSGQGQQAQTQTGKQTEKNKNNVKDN
Chain of UniProt Q15831 (whole entry, looked up): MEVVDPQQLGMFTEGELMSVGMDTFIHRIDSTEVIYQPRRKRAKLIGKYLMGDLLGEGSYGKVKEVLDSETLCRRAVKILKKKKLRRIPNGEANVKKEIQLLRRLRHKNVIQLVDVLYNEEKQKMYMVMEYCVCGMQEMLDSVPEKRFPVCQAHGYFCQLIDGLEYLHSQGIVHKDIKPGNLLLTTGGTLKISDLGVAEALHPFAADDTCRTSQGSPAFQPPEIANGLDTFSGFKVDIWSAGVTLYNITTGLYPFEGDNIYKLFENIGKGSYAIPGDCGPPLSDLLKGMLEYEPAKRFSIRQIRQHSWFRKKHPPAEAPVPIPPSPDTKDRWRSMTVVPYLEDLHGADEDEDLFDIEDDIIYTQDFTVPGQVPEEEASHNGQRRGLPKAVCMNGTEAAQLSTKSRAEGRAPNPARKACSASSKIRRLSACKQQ
Chain of UniProt P29322 (whole entry, looked up): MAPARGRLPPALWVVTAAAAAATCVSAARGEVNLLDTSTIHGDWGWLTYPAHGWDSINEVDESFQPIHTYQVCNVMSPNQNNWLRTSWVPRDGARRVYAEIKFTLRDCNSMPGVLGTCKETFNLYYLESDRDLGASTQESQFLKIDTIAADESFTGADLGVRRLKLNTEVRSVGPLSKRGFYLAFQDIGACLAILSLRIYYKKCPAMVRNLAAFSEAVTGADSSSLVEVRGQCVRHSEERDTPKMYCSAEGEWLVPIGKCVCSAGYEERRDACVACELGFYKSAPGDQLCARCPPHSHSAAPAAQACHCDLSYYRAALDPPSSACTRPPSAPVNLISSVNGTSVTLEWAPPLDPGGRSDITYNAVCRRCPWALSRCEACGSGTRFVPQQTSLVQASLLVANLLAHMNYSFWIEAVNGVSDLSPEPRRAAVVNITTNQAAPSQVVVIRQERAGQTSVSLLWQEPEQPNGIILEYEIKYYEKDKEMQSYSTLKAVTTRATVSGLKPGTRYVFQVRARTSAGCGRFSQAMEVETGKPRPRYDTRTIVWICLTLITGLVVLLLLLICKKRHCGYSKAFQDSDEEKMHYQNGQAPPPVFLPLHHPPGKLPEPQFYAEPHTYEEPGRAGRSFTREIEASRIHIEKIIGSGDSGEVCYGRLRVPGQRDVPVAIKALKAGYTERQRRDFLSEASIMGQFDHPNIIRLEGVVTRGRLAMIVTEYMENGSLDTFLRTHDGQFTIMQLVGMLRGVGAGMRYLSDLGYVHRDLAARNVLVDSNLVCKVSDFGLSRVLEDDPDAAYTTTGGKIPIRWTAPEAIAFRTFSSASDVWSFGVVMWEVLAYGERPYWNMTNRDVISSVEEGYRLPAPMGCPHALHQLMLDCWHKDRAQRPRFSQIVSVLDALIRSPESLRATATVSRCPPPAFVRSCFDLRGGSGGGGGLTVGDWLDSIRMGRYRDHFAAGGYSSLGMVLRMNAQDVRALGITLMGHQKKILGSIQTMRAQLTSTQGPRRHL

Sample 1 — read-out: enzyme activity; mode: inhibitor; concentration: 10 µM
Target: Calcium/calmodulin-dependent protein kinase type II subunit alpha (CAMK2A, Homo sapiens, UniProt Q9UQM7)
Chain of UniProt Q9UQM7 (whole entry, looked up): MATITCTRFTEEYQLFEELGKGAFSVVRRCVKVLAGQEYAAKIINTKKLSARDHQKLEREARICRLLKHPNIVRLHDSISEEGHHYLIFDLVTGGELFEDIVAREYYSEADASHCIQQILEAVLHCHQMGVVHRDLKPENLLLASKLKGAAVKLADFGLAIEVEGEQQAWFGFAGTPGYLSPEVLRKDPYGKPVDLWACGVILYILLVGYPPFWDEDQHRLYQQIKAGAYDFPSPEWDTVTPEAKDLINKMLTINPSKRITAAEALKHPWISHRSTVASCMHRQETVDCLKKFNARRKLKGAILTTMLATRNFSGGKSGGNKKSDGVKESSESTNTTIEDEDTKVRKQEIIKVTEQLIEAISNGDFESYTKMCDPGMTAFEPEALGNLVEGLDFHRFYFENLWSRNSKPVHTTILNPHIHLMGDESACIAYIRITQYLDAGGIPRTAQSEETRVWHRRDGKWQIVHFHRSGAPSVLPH
`CCCC(=O)Nc1ncnc2c1ncn2[C@@H]1O[C@@H]2COP(=O)(O)O[C@H]2[C@H]1OC(=O)CCC` gave an inhibition of -3%.
`CCN(CC)CC(=O)Oc1ccc(NC(C)=O)cc1` gave an inhibition of -3%.
For `COc1ccc(-c2oc3c(CC=C(C)C)c(O[C@@H]4C[C@H](CO)[C@@H](O)[C@H](O)[C@H]4O)cc(O)c3c(=O)c2O[C@@H]2O[C@@H](C)[C@H](O)[C@@H](O)[C@H]2O[C@@H]2O[C@H](CO)[C@@H](O)[C@H](O)[C@H]2O)cc1`, the inhibition was 21%.
`COCCOC(=O)C1=C(C)NC(C)=C(C(=O)OC(C)C)C1c1cccc([N+](=O)[O-])c1` (centres unmarked) gave an inhibition of -2%.
With `O=c1cc(-c2ccc(O)cc2)oc2cc(O)c(O)c(O)c12` the inhibition was -22%.
For `CC(CN(C)C)CN1c2ccccc2CCc2ccccc21` (centres unmarked), the inhibition was -11%.
`C[C@]12C[C@H](O)[C@H]3[C@@H](CCC4=CC(=O)CC[C@@]43C)[C@@H]1CC[C@@H]2C(=O)CO` gave an inhibition of 11%.
`Cc1ncc([N+](=O)[O-])n1C[C@H](O)CN1CCOCC1` gave an inhibition of 9%.
`CCCC(=O)c1c(O)c(Cc2c(O)c(Cc3c(O)c(C)c(OC)c(C(=O)CCC)c3O)c(O)c(C(=O)[C@@H](C)CC)c2O)c(O)c(C)c1OC` gave an inhibition of 21%.
For `CCCCCCCCCCCCCCC(=O)OC`, the inhibition was 13%.
With `NS(=O)(=O)c1cc(C2(O)NC(=O)c3ccccc32)ccc1Cl` (centres unmarked) the inhibition was 1%.
With `CCCCCCCCCCCCCCCC(=O)NCc1ccccc1` the inhibition was 3%.
The inhibition of `C/C=C(/C)C(=O)O[C@H]1[C@H](OC(C)=O)[C@]2(CO)[C@H](O)C[C@]3(C)C(=CC[C@@H]4[C@@]5(C)CC[C@H](O[C@@H]6O[C@H](C(=O)O)[C@@H](O[C@@H]7O[C@H](CO)[C@@H](O)[C@H](O)[C@H]7O)[C@H](O)[C@H]6O[C@@H]6O[C@H](CO)[C@@H](O)[C@H](O)[C@H]6O)[C@](C)(CO)[C@@H]5CC[C@]43C)[C@@H]2CC1(C)C` is reported as -8%.
With `COc1c(O)cc2c(c1O)[C@@H]1O[C@H](CO)[C@@H](O)[C@H](O)[C@H]1OC2=O` the inhibition was 13%.
For `O=Cc1ccc(O[C@@H]2O[C@H](CO)[C@@H](O)[C@@H](O)[C@H]2O)cc1`, the inhibition was 0%.
For `CC[C@@H]1/C=C(\C)C[C@H](C)C[C@H](OC)[C@H]2O[C@@](O)(C(=O)C(=O)N3CCCC[C@H]3C(=O)O[C@H](/C(C)=C/[C@@H]3CC[C@H](Cl)[C@H](OC)C3)[C@H](C)[C@@H](O)CC1=O)[C@H](C)C[C@@H]2OC`, the inhibition was -5%.
For `COc1cc2nc(N3CCN(C(=O)[C@@H]4CCCO4)CC3)nc(N)c2cc1OC`, the inhibition was -10%.

Sample 2 — read-out: RNA clamping; technique: fluorescence polarization; concentration: concentration not given; notes: mean of two replicates; added: FAM-labelled poly r(AG)8 RNA
Target: Eukaryotic initiation factor 4A-I (EIF4A1, Homo sapiens, UniProt P60842)
Chain of UniProt P60842 (whole entry, looked up): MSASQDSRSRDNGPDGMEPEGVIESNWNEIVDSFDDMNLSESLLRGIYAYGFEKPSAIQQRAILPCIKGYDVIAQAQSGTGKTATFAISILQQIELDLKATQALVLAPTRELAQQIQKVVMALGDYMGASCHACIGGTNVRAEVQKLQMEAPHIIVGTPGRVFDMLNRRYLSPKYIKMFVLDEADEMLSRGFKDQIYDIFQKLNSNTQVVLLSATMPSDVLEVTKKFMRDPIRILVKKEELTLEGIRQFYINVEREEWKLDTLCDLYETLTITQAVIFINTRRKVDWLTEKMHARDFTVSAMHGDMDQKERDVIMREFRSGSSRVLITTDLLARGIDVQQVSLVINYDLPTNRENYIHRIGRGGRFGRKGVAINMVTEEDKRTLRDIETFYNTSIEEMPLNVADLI
`O[C@@H]1C2(O)c3ccccc3O[C@]1(c1ccccc1)[C@@H](/C=C/c1ccccc1)[C@@H]2c1ccccc1`: “fluorescence polarization change” 6.8 mP.
`COc1ccc([C@@]23Oc4cc(OC)cc(OC)c4[C@]2(O)[C@H](O)[C@H](CN(C)C)[C@H]3c2ccccc2)cc1`: “fluorescence polarization change” 70.7 mP.
Under “fluorescence polarization change”, `COC(=O)/C=C/Oc1nc(-c2ccccc2)nc2c1[C@@H](c1ccccc1)[C@]1(c3ccc(OC)cc3)Oc3cc(OC)cc(OC)c3[C@]21O` is recorded as -2.6 mP.
For `CCOC(=O)COc1nc(-c2ccccc2)nc2c1[C@@H](c1ccccc1)[C@]1(c3ccc(OC)cc3)Oc3cc(OC)cc(OC)c3[C@]21OCC(=O)OCC`, “fluorescence polarization change” read 5 mP.
`COc1ccc([C@H]2[C@H](C(=O)N(C)C)[C@@H](O)[C@@]3(O)c4c(OC)cc(OC)cc4O[C@@]23c2ccc(OC)cc2)cc1` — result for “fluorescence polarization change”: 4.3 mP.
For `COC(=O)[C@H]1C(=O)[C@@]2(NCCN3CCOCC3)c3c(OC)cc(OC)cc3O[C@@]2(c2ccc(OC)cc2)[C@@H]1c1ccccc1`, “fluorescence polarization change” read 15.9 mP.
`COCCN[C@@]12/C(=N/O)C[C@@H](c3ccccc3)[C@]1(c1ccc(OC)cc1)Oc1cc(OC)cc(OC)c12` — result for “fluorescence polarization change”: -1.6 mP.
Under “fluorescence polarization change”, `COC(=O)[C@H]1[C@@H](O)[C@@]2(O)c3c(OC)cccc3N(C)[C@@]2(c2ccc(OC)cc2)[C@@H]1c1ccccc1` is recorded as 0.2 mP.
`C#CCNC(=O)/C=C/Cn1c(-c2ccccc2)nc2c(c1=O)[C@@H](c1ccccc1)[C@]1(c3ccc(OC)cc3)Oc3cc(OC)cc(OC)c3[C@]21O`: “fluorescence polarization change” 23.6 mP.
Under “fluorescence polarization change”, `COC(=O)[C@H]1C(=O)[C@@]2(NCc3ccccc3)c3c(OC)cc(OC)cc3O[C@@]2(c2ccc(OC)cc2)[C@@H]1c1ccccc1` is recorded as 1.9 mP.
For `COC(=O)[C@@H]1[C@@H](c2ccccc2)[C@]2(c3ccc(OC)cc3)Oc3cc(OC)cc(OC)c3[C@@]23OC(c2ccccc2Cl)=N[C@@]13O`, “fluorescence polarization change” read -8.2 mP.
Under “fluorescence polarization change”, `COC(=O)[C@@H]1[C@@H](c2ccccc2)[C@]2(c3ccc(OC)cc3)Oc3cc(OC)cc(OC)c3[C@@]23NC(Cc2ccccc2)=N[C@@]13O` is recorded as 66.7 mP and 39 mP.
Under “fluorescence polarization change”, `C#CCOc1nc(-c2ccccc2)nc2c1[C@@H](c1ccccc1)[C@]1(c3ccc(OC)cc3)Oc3cc(OCC(=O)OCC)cc(OC)c3[C@]21OCC(=O)OCC` is recorded as -5.9 mP.
`COC(=O)/C=C/Cn1c(-c2ccccc2)nc2c(c1=O)[C@@H](c1ccccc1)[C@]1(c3ccc(OC)cc3)Oc3cc(OC)cc(OC)c3[C@]21O` — result for “fluorescence polarization change”: 11.2 mP.
Under “fluorescence polarization change”, `COC(=O)[C@@H]1[C@@H](c2ccccc2)[C@]2(c3ccc(OC)cc3)Oc3cc(OC)cc(OC)c3[C@@]23OC(c2ccc(OCc4ccccc4)cc2)=N[C@@]13O` is recorded as 3.1 mP.
`COc1ccc([C@@]23Oc4cc(OC)cc(OC)c4[C@]2(O)c2[nH]nc(O)c2[C@H]3c2ccccc2)cc1` — result for “fluorescence polarization change”: 37.1 mP.
`COc1ccc([C@]23Oc4cc(OC)cc(OC)c4[C@](O)([C@H]2O)[C@@H](C(=O)N(C)OC)[C@@H]3c2ccccc2)cc1` — result for “fluorescence polarization change”: 8.3 mP.
`COC(=O)[C@@H]1[C@@H](c2ccccc2)[C@]2(c3ccc(OC)cc3)Oc3cc(OC)cc(OC)c3[C@@]23NC(c2csc(C)n2)=N[C@@]13O` — result for “fluorescence polarization change”: 38.3 mP.
`COC(=O)[C@@H]1[C@@H](c2ccccc2)[C@]2(c3ccc(OC)cc3)Oc3cc(OC)cc(OC)c3[C@@]23NC(c2ccc(Br)cc2)=N[C@@]13O`: “fluorescence polarization change” 10.7 mP.

Sample 3 — concentration: 1 µM
SMILES: O=C(NS(=O)(=O)c1ccc(NCC2CCOCC2)c([N+](=O)[O-])c1)c1ccc(N2CCN(Cc3ccc(C(F)(F)F)cc3-c3ccc(Cl)cc3)CC2)cc1Oc1cnc2[nH]ccc2c1
The remaining binding was 100% (Ribosomal protein S6 kinase alpha-2, N-terminal kinase domain (RPS6KA2, Homo sapiens, UniProt Q15349); cell-free assay, competition with immobilised ligand).
CDK19 (Homo sapiens, UniProt Q9BWU1); competition binding — remaining binding: 90%.
For CDK11A (Homo sapiens, UniProt Q9UQ88); cell-free assay, competition with immobilised ligand: remaining binding read 100%.
MET (Homo sapiens, UniProt P08581, Y1235D); cell-free assay, competition with immobilised ligand — remaining binding: 98%.
It gave 100% for remaining binding (WEE1 (Homo sapiens, UniProt P30291); cell-free assay, competition with immobilised ligand).
For EPHA8 (Homo sapiens, UniProt P29322); cell-free assay, competition with immobilised ligand: remaining binding read 84%.
It gave 100% for remaining binding (CSNK1A1L (Homo sapiens, UniProt Q8N752); cell-free assay, competition with immobilised ligand).
The remaining binding was 86% (MET (Homo sapiens, UniProt P08581, M1250T); cell-free assay, competition with immobilised ligand).
The remaining binding was 100% (DMPK (Homo sapiens, UniProt Q09013); cell-free assay, competition with immobilised ligand).
It gave 100% for remaining binding (STK11 (Homo sapiens, UniProt Q15831); cell-free assay, competition with immobilised ligand).
For MAP3K4 (Homo sapiens, UniProt Q9Y6R4); cell-free assay, competition with immobilised ligand: remaining binding read 94%.
It gave 89% for remaining binding (BMPR1B (Homo sapiens, UniProt O00238); cell-free assay, competition with immobilised ligand).
It gave 77% for remaining binding (MYLK2 (Homo sapiens, UniProt Q9H1R3); cell-free assay, competition with immobilised ligand).
The remaining binding was 55% (STK32C (Homo sapiens, UniProt Q86UX6); cell-free assay, competition with immobilised ligand).
For AAK1 (Homo sapiens, UniProt Q2M2I8); binding: remaining binding read 98%.
It gave 84% for remaining binding (MAP3K15 (Homo sapiens, UniProt Q6ZN16); cell-free assay, competition with immobilised ligand).

Sample 4 — read-out: enzyme activity; mode: inhibitor; concentration: 0.5 µM; relative to: control
Target: Serine/threonine-protein kinase Sgk3 (SGK3, Homo sapiens, UniProt Q96BR1)
Target sequence (Q96BR1 1-496): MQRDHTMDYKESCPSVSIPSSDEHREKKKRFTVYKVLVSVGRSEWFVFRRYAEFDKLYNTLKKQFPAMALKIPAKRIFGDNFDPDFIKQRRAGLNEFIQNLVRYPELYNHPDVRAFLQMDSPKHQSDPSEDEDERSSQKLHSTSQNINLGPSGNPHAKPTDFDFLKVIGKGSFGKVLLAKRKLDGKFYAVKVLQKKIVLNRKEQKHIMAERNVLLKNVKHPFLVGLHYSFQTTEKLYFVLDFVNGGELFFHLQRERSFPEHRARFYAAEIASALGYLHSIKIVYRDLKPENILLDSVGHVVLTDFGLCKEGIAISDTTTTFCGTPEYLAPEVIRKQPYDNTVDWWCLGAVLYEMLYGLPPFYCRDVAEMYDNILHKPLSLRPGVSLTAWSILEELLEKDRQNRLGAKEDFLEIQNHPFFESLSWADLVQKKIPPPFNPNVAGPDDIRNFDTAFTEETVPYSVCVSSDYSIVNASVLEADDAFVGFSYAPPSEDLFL
With `CC#CC(=O)Nc1cc2c(Nc3ccc(F)c(Cl)c3)ncnc2cn1` the remaining activity was 100%.
With `COc1cc(Nc2c(C#N)cnc3cc(OCCCN4CCN(C)CC4)c(OC)cc23)c(Cl)cc1Cl` the remaining activity was 94.4%.
`CCc1[nH]c(-c2ccc(OC)cc2)nc1-c1ccncc1` has a remaining activity of 99.3%.
`CSc1nc(-c2ccnc(N[C@@H](C)c3ccccc3)c2)c(-c2ccc(F)cc2)[nH]1` (racemic) has a remaining activity of 103%.
`COc1ccc(S(=O)(=O)N(CCO)c2ccccc2CN(C)CC=Cc2ccc(Cl)cc2)cc1` has a remaining activity of 106%.
With `O=S(=O)(NCCNC/C=C/c1ccc(Br)cc1)c1cccc2cnccc12` the remaining activity was 78.8%.
With `CC(C)(C)n1nc(Cc2cccc3ccccc23)c2c(N)ncnc21` the remaining activity was 97.8%.
`Nc1ncnc2c1cnn2-c1ccccc1` has a remaining activity of 92.3%.
For `Cc1ccc(NC2=CC(=O)c3sc(C)nc3C2=O)cc1`, the remaining activity was 95.2%.
With `N#CC(=C(N)Sc1ccc(N)cc1)c1ccccc1C(F)(F)F` the remaining activity was 105%.
`Nc1nc(Nc2ccc(S(N)(=O)=O)cc2)nn1C(=O)c1c(F)cccc1F` has a remaining activity of 114%.
`CC[n+]1c(/C=C/N(C)c2ccccc2)n(-c2ccccc2)c2ccc(-c3nc4ccccc4s3)cc21` has a remaining activity of 102%.
The remaining activity of `Nc1nccc(-c2c(-c3ccc(F)cc3)ncn2C2CCNCC2)n1` is reported as 97.5%.
The remaining activity of `Oc1ccc(Nc2nc(-c3ccc(Cl)cc3)cs2)cc1` is reported as 98%.
With `O=C1NC(=O)C(c2c[nH]c3ccccc23)=C1c1c[nH]c2ccccc12` the remaining activity was 97.9%.
`Fc1ccc(-c2nc3n(c2-c2ccncc2)CCS3)cc1` has a remaining activity of 95.8%.
`Cc1cncc2cccc(S(=O)(=O)N3CCCN(C(=O)CN)C[C@@H]3C)c12` gave a remaining activity of 96%.
With `CC(=O)c1ccc(N2CCOCC2)cc1O` the remaining activity was 105%.
With `Cc1cc(Nc2nc(-c3ccccc3)nc3ccccc23)n[nH]1` the remaining activity was 104%.
With `NC(=O)c1ccc(N(C(N)=O)c2c(F)cccc2F)nc1-c1ccc(F)cc1F` the remaining activity was 99.9%.
With `O=C1Cc2c([nH]c3ccc([N+](=O)[O-])cc23)-c2ccccc2N1` the remaining activity was 102%.
With `CCCC(=O)Oc1ccc2[nH]c(C(=O)c3cc4ccccc4[nH]3)cc2c1` the remaining activity was 102%.

For quick reference, copied from above (sample 3):
For EPHA8 (Homo sapiens, UniProt P29322); cell-free assay, competition with immobilised ligand: remaining binding read 84%.
It gave 100% for remaining binding (CSNK1A1L (Homo sapiens, UniProt Q8N752); cell-free assay, competition with immobilised ligand).
The remaining binding was 86% (MET (Homo sapiens, UniProt P08581, M1250T); cell-free assay, competition with immobilised ligand).
The remaining binding was 100% (DMPK (Homo sapiens, UniProt Q09013); cell-free assay, competition with immobilised ligand).
It gave 100% for remaining binding (STK11 (Homo sapiens, UniProt Q15831); cell-free assay, competition with immobilised ligand).
For MAP3K4 (Homo sapiens, UniProt Q9Y6R4); cell-free assay, competition with immobilised ligand: remaining binding read 94%.
It gave 89% for remaining binding (BMPR1B (Homo sapiens, UniProt O00238); cell-free assay, competition with immobilised ligand).
It gave 77% for remaining binding (MYLK2 (Homo sapiens, UniProt Q9H1R3); cell-free assay, competition with immobilised ligand).
The remaining binding was 55% (STK32C (Homo sapiens, UniProt Q86UX6); cell-free assay, competition with immobilised ligand).
